Measured values pooled from the literature.
Numbered parts are unrelated; each lists some results of a single study. “And” joins repeats or separate records; there may be more than shown.
Chain of UniProt Q96SB4 (whole entry, looked up): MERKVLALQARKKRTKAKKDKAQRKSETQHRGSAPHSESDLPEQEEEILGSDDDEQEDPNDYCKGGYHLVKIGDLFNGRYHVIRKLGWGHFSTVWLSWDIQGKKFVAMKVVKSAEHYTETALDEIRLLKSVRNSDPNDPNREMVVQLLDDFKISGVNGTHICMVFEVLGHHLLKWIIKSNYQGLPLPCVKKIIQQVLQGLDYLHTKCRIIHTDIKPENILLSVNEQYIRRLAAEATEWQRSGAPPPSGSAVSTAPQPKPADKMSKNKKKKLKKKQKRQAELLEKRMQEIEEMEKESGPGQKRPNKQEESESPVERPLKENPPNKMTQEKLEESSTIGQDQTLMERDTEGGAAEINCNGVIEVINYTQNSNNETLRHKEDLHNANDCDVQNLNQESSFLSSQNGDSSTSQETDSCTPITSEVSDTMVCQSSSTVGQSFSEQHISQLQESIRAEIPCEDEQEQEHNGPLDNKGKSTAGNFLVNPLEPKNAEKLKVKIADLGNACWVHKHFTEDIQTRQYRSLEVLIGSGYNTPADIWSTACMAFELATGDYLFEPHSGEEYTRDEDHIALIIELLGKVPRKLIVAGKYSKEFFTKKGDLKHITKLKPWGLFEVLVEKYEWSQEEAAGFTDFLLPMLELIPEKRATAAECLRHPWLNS
Chain of UniProt P31751 (whole entry, looked up): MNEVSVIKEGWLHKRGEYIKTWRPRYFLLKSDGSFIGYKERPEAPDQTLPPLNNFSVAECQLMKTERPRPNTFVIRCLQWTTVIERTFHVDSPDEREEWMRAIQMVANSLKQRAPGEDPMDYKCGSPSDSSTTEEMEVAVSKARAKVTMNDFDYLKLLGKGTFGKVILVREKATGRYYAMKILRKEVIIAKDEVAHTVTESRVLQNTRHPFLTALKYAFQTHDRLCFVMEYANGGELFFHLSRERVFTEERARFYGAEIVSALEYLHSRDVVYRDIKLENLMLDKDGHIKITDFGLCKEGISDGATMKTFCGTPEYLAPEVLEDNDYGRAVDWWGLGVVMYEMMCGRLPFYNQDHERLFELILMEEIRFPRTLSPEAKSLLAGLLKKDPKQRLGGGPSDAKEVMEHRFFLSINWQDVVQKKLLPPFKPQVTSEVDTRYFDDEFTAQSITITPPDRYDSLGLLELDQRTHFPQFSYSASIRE
Chain of UniProt Q86Y07 (whole entry, looked up): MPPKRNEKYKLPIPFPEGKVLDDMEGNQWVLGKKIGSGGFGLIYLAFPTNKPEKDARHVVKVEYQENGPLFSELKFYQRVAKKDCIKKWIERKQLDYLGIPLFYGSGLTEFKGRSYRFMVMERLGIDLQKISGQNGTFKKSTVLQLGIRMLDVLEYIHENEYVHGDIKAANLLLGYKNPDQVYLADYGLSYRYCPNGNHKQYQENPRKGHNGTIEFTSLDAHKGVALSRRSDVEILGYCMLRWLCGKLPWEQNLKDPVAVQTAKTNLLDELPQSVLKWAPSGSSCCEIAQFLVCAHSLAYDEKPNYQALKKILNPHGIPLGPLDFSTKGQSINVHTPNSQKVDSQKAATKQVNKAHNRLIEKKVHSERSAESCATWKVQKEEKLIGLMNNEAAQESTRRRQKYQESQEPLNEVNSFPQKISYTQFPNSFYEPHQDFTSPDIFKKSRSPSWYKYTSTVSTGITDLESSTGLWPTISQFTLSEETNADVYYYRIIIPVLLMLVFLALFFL
Chain of UniProt Q8TD19 (whole entry, looked up): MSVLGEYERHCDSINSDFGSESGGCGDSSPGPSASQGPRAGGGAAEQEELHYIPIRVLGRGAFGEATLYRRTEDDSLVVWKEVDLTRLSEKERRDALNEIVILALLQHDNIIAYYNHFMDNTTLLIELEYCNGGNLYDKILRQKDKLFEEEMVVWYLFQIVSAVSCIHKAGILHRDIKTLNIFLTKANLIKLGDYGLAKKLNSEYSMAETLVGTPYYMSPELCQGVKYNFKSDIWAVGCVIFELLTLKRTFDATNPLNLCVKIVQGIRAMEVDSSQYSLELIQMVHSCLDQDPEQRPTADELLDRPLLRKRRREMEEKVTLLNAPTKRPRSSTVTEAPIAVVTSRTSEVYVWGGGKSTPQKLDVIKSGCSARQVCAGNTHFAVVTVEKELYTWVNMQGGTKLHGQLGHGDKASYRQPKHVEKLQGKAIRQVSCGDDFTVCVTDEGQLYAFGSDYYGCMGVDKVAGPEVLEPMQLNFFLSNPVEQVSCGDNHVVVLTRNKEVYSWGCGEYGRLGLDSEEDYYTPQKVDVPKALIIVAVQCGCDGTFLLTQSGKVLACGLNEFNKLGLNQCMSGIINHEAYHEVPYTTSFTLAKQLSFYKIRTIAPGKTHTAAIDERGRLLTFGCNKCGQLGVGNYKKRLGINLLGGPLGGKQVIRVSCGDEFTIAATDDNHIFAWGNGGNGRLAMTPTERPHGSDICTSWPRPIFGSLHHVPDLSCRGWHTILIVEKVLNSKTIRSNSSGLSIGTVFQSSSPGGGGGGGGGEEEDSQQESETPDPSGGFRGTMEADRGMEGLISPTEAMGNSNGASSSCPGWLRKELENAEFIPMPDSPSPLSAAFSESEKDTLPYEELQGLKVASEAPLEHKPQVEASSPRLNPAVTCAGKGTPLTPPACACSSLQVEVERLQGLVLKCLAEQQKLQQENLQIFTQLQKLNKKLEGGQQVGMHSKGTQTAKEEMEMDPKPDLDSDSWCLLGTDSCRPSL
Chain of UniProt P78362 (whole entry, looked up): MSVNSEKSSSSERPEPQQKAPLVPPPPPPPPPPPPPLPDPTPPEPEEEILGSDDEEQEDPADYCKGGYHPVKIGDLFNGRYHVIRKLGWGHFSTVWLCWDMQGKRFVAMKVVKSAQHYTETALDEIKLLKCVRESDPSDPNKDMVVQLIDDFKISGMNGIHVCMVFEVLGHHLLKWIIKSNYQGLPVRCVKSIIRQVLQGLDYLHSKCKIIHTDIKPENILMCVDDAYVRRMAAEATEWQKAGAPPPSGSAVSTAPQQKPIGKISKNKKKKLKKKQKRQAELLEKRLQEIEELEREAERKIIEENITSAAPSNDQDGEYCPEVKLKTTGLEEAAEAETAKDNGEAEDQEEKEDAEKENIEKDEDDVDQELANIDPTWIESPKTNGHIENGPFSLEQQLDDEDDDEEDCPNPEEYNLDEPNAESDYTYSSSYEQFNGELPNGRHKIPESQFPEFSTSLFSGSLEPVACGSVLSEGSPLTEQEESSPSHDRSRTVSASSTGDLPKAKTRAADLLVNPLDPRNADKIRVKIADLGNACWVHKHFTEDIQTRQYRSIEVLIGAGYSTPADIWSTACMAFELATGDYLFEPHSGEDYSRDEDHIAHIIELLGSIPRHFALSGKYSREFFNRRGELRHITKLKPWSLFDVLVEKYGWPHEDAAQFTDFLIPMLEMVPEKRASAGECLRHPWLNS
Chain of UniProt P54762 (whole entry, looked up): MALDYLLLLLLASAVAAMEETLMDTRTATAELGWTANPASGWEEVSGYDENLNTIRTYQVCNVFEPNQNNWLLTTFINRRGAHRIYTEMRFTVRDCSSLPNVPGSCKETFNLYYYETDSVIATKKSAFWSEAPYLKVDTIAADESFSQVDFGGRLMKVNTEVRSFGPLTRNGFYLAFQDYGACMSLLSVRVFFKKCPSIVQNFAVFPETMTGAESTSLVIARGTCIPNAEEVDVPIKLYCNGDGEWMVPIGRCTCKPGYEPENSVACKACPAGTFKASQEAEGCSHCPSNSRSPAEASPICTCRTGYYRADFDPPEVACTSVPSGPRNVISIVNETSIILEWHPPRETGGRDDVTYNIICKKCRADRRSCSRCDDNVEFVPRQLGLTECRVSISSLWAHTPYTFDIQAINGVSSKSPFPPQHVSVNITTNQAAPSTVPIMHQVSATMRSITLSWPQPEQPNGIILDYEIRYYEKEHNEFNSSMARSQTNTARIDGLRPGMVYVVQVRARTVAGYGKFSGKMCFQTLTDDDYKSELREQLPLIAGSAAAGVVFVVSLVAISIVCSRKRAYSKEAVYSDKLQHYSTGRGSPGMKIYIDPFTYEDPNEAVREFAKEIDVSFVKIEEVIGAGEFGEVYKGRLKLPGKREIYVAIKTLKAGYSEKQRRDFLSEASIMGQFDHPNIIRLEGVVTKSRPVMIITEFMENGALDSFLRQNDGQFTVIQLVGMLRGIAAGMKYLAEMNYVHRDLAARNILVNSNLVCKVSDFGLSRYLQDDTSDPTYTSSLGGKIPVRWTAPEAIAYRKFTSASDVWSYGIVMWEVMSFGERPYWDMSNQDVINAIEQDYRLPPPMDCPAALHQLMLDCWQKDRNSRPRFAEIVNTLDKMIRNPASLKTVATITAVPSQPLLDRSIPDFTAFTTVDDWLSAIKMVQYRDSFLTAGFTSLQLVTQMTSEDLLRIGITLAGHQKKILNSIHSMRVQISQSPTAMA

Set 1
Target: Maternal embryonic leucine zipper kinase (MELK, Homo sapiens, UniProt Q14680)
Chain of UniProt Q14680 (whole entry, looked up): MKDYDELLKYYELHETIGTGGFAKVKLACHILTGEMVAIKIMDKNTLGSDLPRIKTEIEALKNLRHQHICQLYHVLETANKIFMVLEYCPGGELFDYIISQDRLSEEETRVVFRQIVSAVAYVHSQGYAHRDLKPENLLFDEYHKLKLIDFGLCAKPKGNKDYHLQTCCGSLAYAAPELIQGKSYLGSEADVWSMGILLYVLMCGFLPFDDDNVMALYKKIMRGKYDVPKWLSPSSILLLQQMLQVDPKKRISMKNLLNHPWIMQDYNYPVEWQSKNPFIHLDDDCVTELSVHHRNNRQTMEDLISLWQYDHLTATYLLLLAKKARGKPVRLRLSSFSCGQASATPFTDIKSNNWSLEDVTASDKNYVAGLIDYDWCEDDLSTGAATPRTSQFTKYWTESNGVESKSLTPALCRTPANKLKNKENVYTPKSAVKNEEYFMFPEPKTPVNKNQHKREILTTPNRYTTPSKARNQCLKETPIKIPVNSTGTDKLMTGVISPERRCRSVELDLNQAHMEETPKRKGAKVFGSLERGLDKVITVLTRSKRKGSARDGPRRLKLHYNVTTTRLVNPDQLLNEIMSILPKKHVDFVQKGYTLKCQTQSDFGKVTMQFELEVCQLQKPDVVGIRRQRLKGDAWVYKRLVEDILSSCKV
Read-out: enzyme activity
Mode: inhibitor
Tested at: 0.5 µM
Reference: control
SMILES | remaining activity
N#CC(c1ccnc(NCCc2cccnc2)n1)c1nc2ccccc2s1 (stereo not shown) | 91.7%
O=c1c(-c2ccc(F)cc2)c(-c2ccncc2)[nH]n1-c1ccc(Cl)cc1 | 86.5%
FC(F)(F)c1ccc(/C=C/c2nc(COc3ccc(CCCCn4ccnn4)cc3)co2)cc1 | 85.4%
NC(=O)c1cccc(-c2cc(Nc3ccc(OC(F)(F)F)cc3)ncn2)c1 | 94.5%
Nc1nc(Nc2ccc(S(N)(=O)=O)cc2)nn1C(=S)Nc1c(F)cccc1F | 32.7%
CCN(CC)CCCCN1c2ccccc2Oc2ccc(Cl)cc21 | 95.3%
O=Nc1c(-c2c(O)[nH]c3ccccc23)[nH]c2ccccc12 | 33.3%
CC(C)n1cnc2c(Nc3cccc(Cl)c3)nc(NCCO)nc21 | 59.7%

Set 2
SMILES: COc1ccc2c(c1)O[C@@H](c1ccc(OC)c(OC)c1)C[C@H]2NC(=O)C1(c2ccc3c(c2)OC(F)(F)O3)CC1
Read-out: cell-free assay
Technique: competition with immobilised ligand
Tested at: 1 µM
target | remaining binding [%]
Serine/threonine-protein kinase Nek9 (NEK9, Homo sapiens, UniProt Q8TD19) | 100
SRSF protein kinase 1 (SRPK1, Homo sapiens, UniProt Q96SB4) | 95
Hepatocyte growth factor receptor (MET, Homo sapiens, UniProt P08581, Y1235D) | 100
RAC-beta serine/threonine-protein kinase (AKT2, Homo sapiens, UniProt P31751) | 100
Ephrin type-B receptor 1 (EPHB1, Homo sapiens, UniProt P54762) | 87
SRSF protein kinase 2 (SRPK2, Homo sapiens, UniProt P78362) | 91
Serine/threonine-protein kinase VRK2 (VRK2, Homo sapiens, UniProt Q86Y07) | 67
Cyclin-dependent kinase-like 5 (CDKL5, Homo sapiens, UniProt O76039) | 85

Set 3
SMILES: COc1cc(C(=O)OCCCN2CCCN(CCCOC(=O)c3cc(OC)c(OC)c(OC)c3)CC2)cc(OC)c1OC
Technique: von Frey test
assay | system | conditions | paw withdrawal threshold
mechanical pain | mouse, STZ diabetic neuropathy | intravenous, 30 mg/kg, 1 h post-dose, third injection | 0.23 g and 0.03 g and 0.12 g and 0.29 g and 0.27 g
– | mouse, CFA inflammatory pain | intravenous, dose not given, 3 h post-dose, first injection, day 1 | 0.23 g and 0.44 g and 0.29 g and 0.4 g and 0.32 g
mechanical pain | mouse, STZ diabetic neuropathy | intravenous, 30 mg/kg, 3 h post-dose, third injection | 0.23 g and 0.13 g and 0.27 g and 0.33 g and 0.11 g
mechanical pain | mouse, STZ diabetic neuropathy | intravenous, 30 mg/kg, 1 h post-dose, first injection, day 8 | 0.51 g and 0.29 g and 0.32 g and 0.05 g and 0.1 g
– | mouse, CFA inflammatory pain | intravenous, dose not given, baseline before CFA | 1.56 g and 0.98 g and 1.3 g and 0.65 g and 0.75 g
– | mouse, CFA inflammatory pain | subcutaneous, 10 mg/kg, 24 h post-dose, third injection, day 5 | 0.23 g and 0.19 g and 0.11 g and 0.29 g

Set 4
Species: human
Medium: microsomes or S9
Tested at: 2 µM
Time: 0.5 h
Compound | remaining compound
COCc1cc(=O)n2c(n1)N(Cc1cccc(C#N)c1)CC2 | 83.2%
COc1cc(=O)[nH]cc1C(=O)N1CCCC1c1cncc(C)c1 (stereo not shown) | 96.5%
Clc1nc(Cl)n(C23CC4CC(CC(C4)C2)C3)n1 | 57.5%
CC(=O)c1ccc(C(=O)NOCC(C)NC(=O)OC(C)(C)C)cc1 (stereo not shown) | 84.8%
COc1ccc2c(c1)OCC(Cc1ccc(OC)c(O)c1)C2=O (stereo not shown) | 26.9%
CCOc1ccc(NC(=O)Nc2ccc(-c3nnc(-c4ccccc4)o3)cc2)cc1 | > 100%

Some of these lines once more (set 4):
Compound | remaining compound
COc1cc(=O)[nH]cc1C(=O)N1CCCC1c1cncc(C)c1 (stereo not shown) | 96.5%
COCc1cc(=O)n2c(n1)N(Cc1cccc(C#N)c1)CC2 | 83.2%
Clc1nc(Cl)n(C23CC4CC(CC(C4)C2)C3)n1 | 57.5%
